Published values of several laboratories.
Each line is one published result; not all experiments were run side by side. Several values in a cell are separate wells, animals, samples, runs or records. ± marks the error that the study gave.
rep main protease: Replicase polyprotein 1ab, main protease (rep, Severe acute respiratory syndrome coronavirus 2, UniProt P0DTD1)
Matrix protein 2 S31N: Matrix protein 2 (Influenza A virus, UniProt P0DOF5, S31N)

SMILES	target or system	test	system	setting	how to read	measurement	result
CN1CC(=O)N=C1N.C[C@H](CCC(=O)O)[C@H]1CC[C@H]2[C@@H]3CC[C@@H]4C[C@H](O)CC[C@]4(C)[C@H]3CC[C@]12C	SARS-CoV-2 Delta variant	virucidal activity	A549-hACE2, B.1.617.2	72 h post infection, virus pretreated 1 h, 37 °C		EC50	12.7 ± 2.72 µg/mL
Cc1ccc(CNC23CC4CC(CC(C4)C2)C3)s1	Influenza A virus		A/WSN/33 M2-S31N			EC50	3.3 µM
CC(C)(C)[C@H](NC(=O)NC1(CS(=O)(=O)C(C)(C)C)CCCCC1)C(=O)N1C[C@H]2[C@@H]([C@H]1C(=O)N[C@H](C#N)C[C@@H]1CCNC1=O)C2(C)C	rep main protease	differential scanning fluorimetry		200 µM		melting temperature	70.6 ± 0.1 °C
COc1ccc2ncc(F)c(C[C@H](O)[C@H]3OC[C@H](NCc4ccc(C)cc4)CO3)c2n1	Mycobacterium tuberculosis		H37Rv katG deletion			MIC	0.5 µg/mL
Oc1ccc(CCCCCCCCC(O)c2c(O)cccc2O)cc1O (stereo not shown)	SARS-CoV-2	viral replication, MTT	HEK293T ACE2, Gamma P.1			EC50	6.8 µM
COc1ccc2ncc(F)c(C(O)C[C@H]3OC[C@H](NCc4ccc5c(c4)OCCO5)CO3)c2c1 (stereo partly shown)	Mycobacterium tuberculosis		H37Rv katG deletion			MIC	4 µg/mL
CCCCCCNCc1ccc(Oc2ccc(Cl)cc2Cl)c(O)c1	Mycobacterium tuberculosis		V2475			MIC	5 µg/mL
COc1ccc2nccc(CC[C@H]3OC[C@H](NC(=O)c4ccc(Cl)c(Cl)c4)CO3)c2c1	Mycobacterium tuberculosis		H37Rv katG deletion			MIC	0.5 µg/mL
CC1OC(OC2C(OC(=O)C34CCC(C)(C)CC3C3=CCC5C6(C)CCC(OC7OC(CO)C(O)C(O)C7O)C(C)(C)C6CCC5(C)C3(C)CC4O)OCC(O)C2O)C(O)C(O)C1OC1OCC(O)C(OC2OCC(O)C(OC3OCC(O)C(O)C3O)C2O)C1O (stereo not shown)	SARS-CoV-2	viral infection	Vero, alpha variant B.1.1.7			IC50	1.59 µM
N=C(N)NCCC[C@H](NC(=O)[C@@H]1CCCN1C(=O)[C@H](N)Cc1ccccc1)C(=O)CCl	Severe acute respiratory syndrome coronavirus 2	viral entry, inhibitor	A549-hACE2-TMPRSS2	pseudovirus		EC50	> 50 µM
COc1ccc2nccc(CC[C@H]3OC[C@H](NC(=O)c4ccc(C(C)(C)C)cc4)CO3)c2c1	Mycobacterium tuberculosis		H37Rv katG deletion			MIC	8 µg/mL
O=C(CCCCCCCCCCc1ccc(O)c(O)c1)c1c(O)cccc1O	SARS-CoV-2		HEK293T ACE2, Alpha B.1.1.7		baseline: CC50 over EC50	selectivity index	4.7
O=c1cc(-c2ccc(O)cc2)oc2c([C@@H]3OC[C@H](O)[C@H](O)[C@H]3O)c(O)c([C@@H]3O[C@H](CO)[C@@H](O)[C@H](O)[C@H]3O)c(O)c12	Replicase polyprotein 1ab, main protease H41A (rep, Severe acute respiratory syndrome coronavirus 2, UniProt P0DTD1, H3304A)	3CL protease activity, inhibitor		concentration not given, 3CLpro H41A mutant		inhibition	50.9%
O=c1[nH]cnc2c(C3NC(COP(=O)(O)OP(=O)(O)OP(=O)(O)O)C(O)C3O)c[nH]c12 (stereo not shown)	Severe acute respiratory syndrome coronavirus 2	viral replication, inhibitor	Vero C1008	48 h		EC90	1.46 µM
COc1ccc(CNc2ccc(C34CC5CC(CC(C5)C3)C4)cc2)c(O)c1	Matrix protein 2 S31N	binding				Kd	> 100 µM
CC(=O)Oc1ccc(CCCCCCCCC(=O)c2c(OC(C)=O)cccc2OC(C)=O)cc1OC(C)=O	SARS-CoV-2	viral replication, MTT	HEK293T ACE2, Gamma P.1			EC50	1.5 µM
COc1ccc2nccc(CC[C@H]3OC[C@H](NC(=O)c4ccc5c(c4)OCCO5)CO3)c2c1	Mycobacterium tuberculosis		H37Rv katG deletion			MIC	> 32 µg/mL

SMILES	target or system	test	system	setting	how to read	measurement	result
CC1(C)CC(=O)c2c(C(F)(F)F)nn(-c3ccc(C(N)=O)c(N[C@H]4CC[C@H](OC(=O)CN)CC4)c3)c2C1	Severe acute respiratory syndrome coronavirus 2	viral replication		10 µM		inhibition	82%
O=C(CCCCCCc1ccc(O)c(O)c1)c1c(O)cccc1O	SARS-CoV-2		HEK293T ACE2, Gamma P.1		baseline: CC50 over EC50	selectivity index	1.5
CC(C)C[C@@H]1NC(=O)[C@H](C(C)C)NC(=O)[C@H](C)NC(=O)[C@H](Cc2ccc(O)cc2)NC(=O)[C@H](CCC(N)=O)NC(=O)[C@H](CC(C)C)NC(=O)[C@@H](Cc2ccc(O)cc2)NC(=O)C[Se]C[C@@H](C(N)=O)NC(=O)[C@H](CCC(=O)O)NC(=O)[C@H](CCCNC(=N)N)NC(=O)[C@H](CCCNC(=N)N)NC(=O)[C@H](CCCCN)NC(=O)[C@H](Cc2c[nH]cn2)NC(=O)[C@H](CCCNC(=N)N)NC1=O	rep main protease	enzyme activity, inhibitor				IC50	0.056 µM
COc1ccc(CNC23CC4C5CC6CC4C(C2)C(C6)C5C3)c(O)c1	Matrix protein 2 S31N	binding				Kd	> 100 µM
CCCCCCNCc1ccc(Oc2ccc(Cl)cc2O)c(Cl)c1	Mycobacterium tuberculosis		V2475			MIC	5 µg/mL
COc1ccc2ncc(F)c(CC[C@@]3(O)CO[C@@H]4[C@@H](NCc5ccc(C)cc5)CO[C@@H]43)c2n1	Mycobacterium tuberculosis		H37Rv katG deletion			MIC	4 µg/mL
CC[C@H](C)[C@H](NC(=O)[C@H](CCCCN)NC(=O)[C@@H](NC(=O)[C@H](CCC(N)=O)NC(=O)[C@H](CCCNC(=N)N)NC(=O)[C@@H]1CSCC(=O)N[C@H](Cc2ccc(O)cc2)C(=O)N[C@@H](CC(C)C)C(=O)N[C@@H](CCC(N)=O)C(=O)N[C@@H](Cc2ccc(O)cc2)C(=O)N[C@@H](C)C(=O)N[C@@H](C(C)C)C(=O)N[C@@H](CC(C)C)C(=O)N[C@@H](CCCNC(=N)N)C(=O)N[C@@H](Cc2c[nH]cn2)C(=O)N[C@@H](CCCCN)C(=O)N[C@@H](CCCNC(=N)N)C(=O)N[C@@H](CCCNC(=N)N)C(=O)N[C@@H](CCC(=O)O)C(=O)N1)[C@@H](C)CC)C(=O)N[C@@H](Cc1c[nH]c2ccccc12)C(=O)N[C@@H](Cc1ccccc1)C(=O)N[C@@H](CCC(N)=O)C(=O)N[C@@H](CC(N)=O)C(=O)N[C@@H](CCCNC(=N)N)C(=O)N[C@@H](CCCNC(=N)N)C(=O)N[C@@H](CCSC)C(=O)N[C@@H](CCCCN)C(=O)N[C@@H](Cc1c[nH]c2ccccc12)C(=O)N[C@@H](CCCCN)C(=O)N[C@@H](CCCCN)C(N)=O	rep main protease	enzyme activity, inhibitor				IC50	0.049 µM
CCn1ccc(-c2cc(-c3cnn(C)c3)cc([C@@H](C)NC(=O)c3cc(OCCN(C)C)ccc3C)c2)n1	SARS-CoV-2		WA1 lineage passage 11	concentration not given		E167G (GGA) mutation frequency	88.6% and 75.7% and 85% and 92.7%
N#Cc1ccc(Oc2ccc(Cl)cc2Cl)c(O)c1	Mycobacterium tuberculosis		V2475			MIC	50 µg/mL
O=C(NC1CCN(c2ncnc3[nH]cnc23)CC1)c1cccc(NS(=O)(=O)c2ccc(C(F)(F)F)cc2)c1	Replicase polyprotein 1ab, nsp14 Q313R (rep, Severe acute respiratory syndrome coronavirus 2, UniProt P0DTD1, Q6238R)	thermal shift	SARS-CoV-2			ΔTm	1.7 °C
Ic1ccc(CNC23CC4CC(CC(C4)C2)C3)s1	Influenza A virus		A/WSN/33 M2-S31N			EC50	1.9 µM
CCCCN(CCCC)CC(O)COc1c2ccoc2c(OC)c2oc(CC)cc(=O)c12 (stereo not shown)	Mycobacterium tuberculosis	Alamar blue	22/22, SIRE and linezolid resistant	21 days, 37 °C		MIC	8 µg/mL
CC(C)CC(C(=O)N1CC2(CC1C#N)C(=O)Nc1ccccc12)N(C)C(=O)c1cc2c(F)cc(F)c(F)c2[nH]1 (stereo not shown)	SARS-CoV-2	viral replication	VeroE6/TMPRSS2, Omicron variants	0.3 µM		inhibition	100%
COc1ccc2nccc(CC[C@H]3OC[C@H](NC(=O)c4ccc(Cl)cc4)CO3)c2c1	Mycobacterium tuberculosis		H37Rv katG deletion			MIC	2 µg/mL
NC(=S)N/N=C/c1ccc(OC(=O)CC2SC(=O)NC2=O)cc1 (stereo not shown)	Mycobacterium tuberculosis	Alamar blue	MDR 210			MIC	31.6 to 45.7 µM
COc1ccc2nccc(CC[C@H]3OC[C@H](NC(=O)c4ccc(C)cc4)CO3)c2c1	Mycobacterium tuberculosis		H37Rv katG deletion			MIC	> 32 µg/mL
CC(C)C(=O)OC[C@H]1O[C@@](C#N)(n2ccc(N)nc2=O)[C@H](O)[C@@H]1O	SARS-CoV-2 Delta	viral replication	Calu-3			EC90	3.5 ± 1 µM
